{"data": "Experimental data from different studies", "note": "Compare with care: the assays were run in different laboratories. Numbers after ± are the reported error."}
{"SMILES": "NCCCCCCN1N=C(c2ccc(NC(=O)N3Cc4ccncc4C3)cc2)CC(c2cccc3ncccc23)C1=O (stereo not shown)", "tested on": "MDA-MB-453", "assay": "cell growth or viability, ATP luminescence", "endpoint": "IC50", "value": "< 3e-05 µM"}
{"SMILES": "O=C1CCC(N2C(=O)c3ccc(N4CCC(C(=O)N5CCC(CCN6CCC(CNC(=O)c7cccc(-c8noc(C(F)(F)F)n8)c7)(c7nc(-c8ccccc8)cs7)CC6)CC5)CC4)cc3C2=O)C(=O)N1 (stereo not shown)", "tested on": "NB-4", "assay": "cell growth or viability, CCK-8", "conditions": "5 days", "endpoint": "IC50", "value": "0.84 µM"}
{"SMILES": "CC1=CC(C)=[O+][Pt-2]([NH3+])([NH3+])[O]1.CC1=CC(C)=[O+][Pt-2]([NH3+])([NH3+])[O]1.O=S(=O)([O-])[O-] (stereo not shown)", "tested on": "U2OS", "assay": "cell growth or viability, MTT", "endpoint": "IC50", "value": "24 µM"}
{"SMILES": "CC(=O)OC[C@]1(C)CCC[C@]2(C)[C@@H]1CC[C@@]13C[C@@H](C[C@H](O)[C@H]12)[C@H](C)C3=O", "tested on": "HBE", "assay": "cell growth or viability, MTT", "endpoint": "IC50", "value": "20 µM"}
{"SMILES": "N#C/C(=C\\c1cn(-c2ccccc2)nc1-c1ccc(Br)cc1)c1nc2ccccc2[nH]1", "tested on": "SW1990", "assay": "cell growth or viability, ATP luminescence", "conditions": "72 h", "endpoint": "IC50", "value": "> 100 µM"}
{"SMILES": "CCCC(CCC)C(=O)[O][Pt]([NH2])([NH2])([Cl])([Cl])[O]C(=O)C(C)c1ccc(CC(C)C)cc1 (stereo not shown)", "tested on": "LoVo", "assay": "cell growth or viability, MTT", "conditions": "72 h", "endpoint": "IC50", "value": "0.034 µM"}
{"SMILES": "C#CCOc1ccc(C(=O)c2ccc(NC(=O)C(=O)NCCc3ccc(O)cc3)cc2)cc1", "tested on": "NCI-H1993", "assay": "cell growth or viability", "endpoint": "IC50", "value": "0.05 µM"}
{"SMILES": "C=CC(OC(C)=O)c1ccc(OC(C)=O)c(OC)c1 (stereo not shown)", "tested on": "HSC-4", "assay": "cell growth or viability, MTT", "conditions": "24 h", "endpoint": "IC50", "value": "5.1 µM"}
{"SMILES": "COc1c(C)c(OS(=O)(=O)c2ccccc2)c(C)c2c1C(=O)CC(c1ccccc1)O2 (stereo not shown)", "tested on": "FaDu", "assay": "cell growth or viability, SRB", "conditions": "72 h", "endpoint": "IC50", "value": "> 50 µM"}
{"SMILES": "COc1cccc(Cn2cc(COc3c(OC)ccc4cc5[n+](cc34)CCc3cc4c(cc3-5)OCO4)nn2)c1", "tested on": "SW1990", "assay": "cell growth or viability, MTT", "endpoint": "IC50", "value": "32.6 µM"}
{"SMILES": "CC(=O)O[C@@H]1CC[C@@]2(C)[C@@H](CC[C@]3(C)[C@@H]2C(=O)C=C2[C@@H]4[C@@H](C)[C@H](C)CC[C@]4(C)CC[C@]23C)[C@@]1(C)C(=O)NCCNC(=O)c1ccccc1", "tested on": "HBE", "assay": "cell growth or viability, MTT", "conditions": "48 h", "endpoint": "IC50", "value": "13.7 µM"}
{"SMILES": "CC(C)(C)c1cc(=O)n2ncc(-c3ccc(F)cc3)c2[nH]1", "tested on": "SW620 tumour organoids", "assay": "cell viability", "conditions": "72 h, 2% Matrigel, 0.4% DMSO", "endpoint": "IC50", "value": "3.3 µM"}
{"SMILES": "C=C1C2CCC3(CCC4C5(C)CCCC4(CN(CCO)C5)C3C2)C1O (stereo not shown)", "tested on": "HBE", "assay": "cell growth or viability, MTT", "endpoint": "IC50", "value": "21.6 µM"}
{"SMILES": "CCN(CC)CCSC(=S)N1CCN(C(=O)/C=C/c2coc3ccccc3c2=O)CC1", "tested on": "tomato spotted wilt virus", "assay": "viral infection, half-leaf method", "system": "Nicotiana glutinosa", "conditions": "500 µg/mL", "endpoint": "protective effect", "value": "59.5 ± 4.9%"}
{"SMILES": "Cc1c(C)n(-c2c(C(C)C)cccc2C(C)C)c(=[Se])n1-c1c(C(C)C)cccc1C(C)C.[Cl][Ag]", "tested on": "LoVo", "assay": "cell growth or viability, MTT", "conditions": "72 h", "endpoint": "IC50", "value": "3.6 µM"}
{"SMILES": "N=C(N)NCCC[C@H](N)C(=O)N1CCC[C@H]1C(=O)N[C@@H](CC(=O)N[C@@H](Cc1ccc(O)cc1)C(=O)O)c1cccc2ccccc12", "tested on": "MCF-7 (no HER2 overexpression)", "endpoint": "IC50", "value": "> 50 µM"}
{"SMILES": "Cc1c(C)c(-c2ccc(-c3ccccc3)cc2)[c-](C)c1C.Cc1c(C)c(-c2ccc(-c3ccccc3)cc2)[c-](C)c1C.[Cl-].[Cl-].[Cl-].[Cl-].[Ir+3].[Ir+3] (stereo not shown)", "tested on": "A549 human cancer cells", "assay": "cell growth, MTT", "conditions": "24 h", "endpoint": "IC50", "value": "> 50 µM"}
{"SMILES": "Cc1cc(C)cc(/C=N/NC(=N)N/N=C/c2cc(C)cc(C)c2)c1", "tested on": "KP-4", "assay": "cell growth or viability, crystal violet", "conditions": "72 h", "endpoint": "IC50", "value": "29 µM"}
{"SMILES": "CCN(CC)CCCSC(=S)N1CCN(C(=O)/C=C/c2coc3ccccc3c2=O)CC1", "tested on": "tomato spotted wilt virus", "assay": "viral infection, half-leaf method", "system": "Nicotiana glutinosa", "conditions": "500 µg/mL", "endpoint": "protective effect", "value": "58.7 ± 5.4%"}
{"SMILES": "CCC(C(=O)O)C1(O)CCCCC1 (stereo not shown)", "tested on": "Fem-X", "assay": "cell growth or viability", "conditions": "72 h", "endpoint": "IC50", "value": "> 200 µM"}
{"SMILES": "CCOP(=O)(OCC)C(Cc1ccccc1F)Nc1ccccc1 (stereo not shown)", "tested on": "T98G", "assay": "cell growth or viability, MTT", "conditions": "48 h", "endpoint": "IC50", "value": "106 µM"}
{"SMILES": "N[C@@H](CCC(=O)N[C@@H](CS[Se]Cc1ccc(-c2cc(C(F)(F)F)nn2-c2ccc(S(N)(=O)=O)cc2)cc1)C(=O)NCC(=O)O)C(=O)O", "tested on": "WM35 melanoma cells", "assay": "cell viability, MTS", "conditions": "72 h, radial stage", "endpoint": "IC50", "value": "2.7 ± 0.4 µM"}
